Results of several laboratories.
Each numbered part is a random draw from the data of one study; scales do not carry over between parts. Substitutions count along the parent as printed.

Sample 1 — method: protein-binding microarray; form: double-stranded DNA, one strand shown; sample: in vitro; tested at: 250 nM; setting: 60-bp whole probe; added: salmon DNA 0.4 mg/ml; relative to: random background probes; direction: higher = stronger binding; quantity: log fluorescence; constant ends, left off below: GCCTAGCAC … GTCTTGATTCGCTTGACGCTGCTG
Target: Interferon regulatory factor 5, full length, phosphomimetic (IRF5, Homo sapiens, UniProt Q13568-2, residues 1-514, K96S/S451D/S453D/S456D/S462D)
TGCATCGTAAGCAAAAATGAGTGCTAG: 0.461 z-score
GACGGTTCCGGCTTCGGGACGTGCTAG: 0.253 z-score
GACGAACTGAGTTTAGAGACGTGCTAG: -0.135 z-score
TTAGAACTGCGTTTCGATTAGTGCTAG: 6.09 z-score
AGTCCGTGGATTGACCAGATGTGCTAG: -0.274 z-score
GACGATTTCAGTTTCGGGACGTGCTAG: 7.49 z-score
CTAATTCTCTTTTCACTTTCGTGCTAG: 5.08 z-score
GACGGCTTCGACTTTCGGGACGTGCTA: 4.11 z-score
TGGCTTTCCTTTATGTCCTGGTGCTAG: 0.757 z-score
TTAGCTTCCGGTTTCGGTTAGTGCTAG: 9.94 z-score
GTCGGTTTCGACACTGGGGACGTGCTA: 5.63 z-score
TCAACTCTCTGCTTGTAACTGTGCTAG: 0.408 z-score
GAATTTCCCACTTTCACTTCGTGCTAG: 6.48 z-score
TTAGGTTTCCTTTCCCTATAGTGCTAG: 1.74 z-score
TCAGCTTTGCCTTCAGCACTGTGCTAG: -0.116 z-score
TTAAGTATCCTTCTCCTTTAGTGCTAG: 0.592 z-score
TTAGGCATCGGGTATCGGTTAGTGCTA: 3.87 z-score
TTAGGTCTCCATTTCCTTTAGTGCTAG: 0.424 z-score
AGACAGTTGAGTTCTGTTGCAGTGCTA: -0.162 z-score

Sample 2 — method: RNA Bind-n-Seq; form: RNA; sample: in vitro; tested at: 200 nM; setting: whole 134-nt RNA, ends assumed; added: 150 mM KCl; relative to: input library; direction: higher = stronger binding; quantity: log2 enrichment
Target: Ras GTPase-activating protein-binding protein 1, full length (G3BP1, Homo sapiens, UniProt Q13283)
UniProt Q13283, sequence (whole entry, looked up): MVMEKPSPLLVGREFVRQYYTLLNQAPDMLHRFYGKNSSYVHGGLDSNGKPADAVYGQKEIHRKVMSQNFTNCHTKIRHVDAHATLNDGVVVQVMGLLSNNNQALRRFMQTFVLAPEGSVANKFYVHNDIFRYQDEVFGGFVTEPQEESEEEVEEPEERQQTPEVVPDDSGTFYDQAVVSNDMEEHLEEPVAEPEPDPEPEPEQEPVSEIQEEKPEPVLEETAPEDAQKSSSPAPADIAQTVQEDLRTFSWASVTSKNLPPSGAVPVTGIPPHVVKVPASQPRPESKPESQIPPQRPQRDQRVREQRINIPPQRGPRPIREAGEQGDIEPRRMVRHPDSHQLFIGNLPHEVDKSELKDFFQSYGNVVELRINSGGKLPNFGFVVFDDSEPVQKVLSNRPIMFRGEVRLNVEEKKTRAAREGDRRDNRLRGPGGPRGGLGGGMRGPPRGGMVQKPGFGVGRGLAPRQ
Constant ends, left off below: GGGAGUUCUACAGUCCGACGAUC … UGGAAUUCUCGGGUGUCAAGG
UGGGAGGUGGAUAUUGUUUAUUUUUUUAGCUCAUUUCCAGGGGUGGGAAUUUUUUUUUAAUAUGUGUCAUGAAUAAAGUUGUUUUUGAAA: 0.133
AGUCCUGUGCUACACAUCGUAUGUACCGAAUCGGCCCCCGGCCCCCGGGGCCCCCGGAAAGUAUUAUGUUACGCCGUUCGGAUCUGCACU: -0.881
UCCAUGCAGGUGGGCAUCUUUGGGAAGUGGGGCAAGGGGGGGAUAGGGAGGGGGGUAACACUUUGGGAACAGGUGGUCCCAGGUCGUUUC: 1.42
CCUGUGCUACACAUCGUAUGUACCGAAUCGGGGAAAAAAGGGAAAAAAGGGAAAAAAGGGGAAAGUAUUAUGUUACGCCGUUCGGAUCUG: -0.465
CAAGUCCUGUGCUACACAUCGUAUGUACCGAAUCGGUUUUUGGAAAGGUUUUUGGAAAGUAUUAUGUUACGCCGUUCGGAUCUGCACUUC: -1.06
CAAGUCCUGUGCUACACAUCGUAUGUACCGAAUCGGGUUUGGGAGGGAAAAAGGGAAAGUAUUAUGUUACGCCGUUCGGAUCUGCACUUC: 0.658
CCUGUGCUACACAUCGUAUGUACCGAAUCGGGGUUUUUGGGGAAAAAAAGGGGAAAGGGGAAAGUAUUAUGUUACGCCGUUCGGAUCUGC: 0.307
UGGGAGGUGGAUUUUGUUUAUUUUUUUAGCUCAUUUCCAGGGGUGGGAAUUUUUUUUUAAUAUGUGUCGUGAAUAAAGUUGUUUUUGAAA: 0.24
ACGCUCCAUGAAAGCUAGGAGGGAGUGAAAUAUCAGUGAUCAUCGCAAGGAAGGAGGCAGACAAGAGUAAGGCACACCUGACUCUUAGGA: -0.395
GUCCUGUGCUACACAUCGUAUGUACCGAAUCGGGUUUUUGGGUUUUUGGGAAAAAGGGAAAGUAUUAUGUUACGCCGUUCGGAUCUGCAC: -0.585
UCUUUAUUUGAGCCAGUCUUGCAAGGUUAACUUCUCACUGGGCCUAGUGUGGUGCCCAGGUUUUUGCCUUGCUUCACUUCUGUCUCUACA: -1.37
CUCAAGUCCUGUGCUACACAUCGUAUGUACCGAAUCGGUUUGGUUUGGGUUUGGAAAGUAUUAUGUUACGCCGUUCGGAUCUGCACUUCC: -0.452
AAGUCCUGUGCUACACAUCGUAUGUACCGAAUCGGGCCCCGGGCCCCGGGGCCCCGGAAAGUAUUAUGUUACGCCGUUCGGAUCUGCACU: 0.874
CAAGUCCUGUGCUACACAUCGUAUGUACCGAAUCGGGGCCCGGGGCCCGGCCCGGAAAGUAUUAUGUUACGCCGUUCGGAUCUGCACUUC: -0.59

Sample 3 — target: CCNF, cyclin fold, Cln2 fusion (human); method: yeast growth competition, sequencing; sample: yeast; setting: strong parent motif; relative to: not given; direction: higher = stronger binding; quantity: normalised enrichment score
Starting sequence: CENPC docking peptide (human); VKTKKRLNFDDKV
VKTKKRLAFDDKV [N8A]: 3.55
VKTKKRANFDDKV [L7A]: 1.37
VKTKKALNFDDKV [R6A]: 1.09
VKAKKRLNFDDKV [T3A]: 6.89
VKTKKRLNLDDKV [F9L]: 0.997
VKTKKRLNFADKV [D10A]: 1.54
VKTKKRLNFDDKA [V13A]: 3.88

Sample 4 — method: DHFR PCA, deep sequencing; sample: yeast; added: (+)-ABA 0.0091 µM; relative to: wild-type fitted maximum; direction: higher = stronger binding; quantity: relative binding score
Target: ABI1, truncated, D143A, DHFR fusion (Arabidopsis thaliana)
Setting: methotrexate growth selection, single substitutions
Starting sequence: PYL1, truncated, DHFR fusion (Arabidopsis thaliana); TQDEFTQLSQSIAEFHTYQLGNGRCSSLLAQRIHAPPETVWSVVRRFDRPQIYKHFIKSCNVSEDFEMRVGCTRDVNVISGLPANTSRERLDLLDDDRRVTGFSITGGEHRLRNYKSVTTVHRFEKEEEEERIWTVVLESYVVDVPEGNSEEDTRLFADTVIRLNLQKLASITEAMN; partner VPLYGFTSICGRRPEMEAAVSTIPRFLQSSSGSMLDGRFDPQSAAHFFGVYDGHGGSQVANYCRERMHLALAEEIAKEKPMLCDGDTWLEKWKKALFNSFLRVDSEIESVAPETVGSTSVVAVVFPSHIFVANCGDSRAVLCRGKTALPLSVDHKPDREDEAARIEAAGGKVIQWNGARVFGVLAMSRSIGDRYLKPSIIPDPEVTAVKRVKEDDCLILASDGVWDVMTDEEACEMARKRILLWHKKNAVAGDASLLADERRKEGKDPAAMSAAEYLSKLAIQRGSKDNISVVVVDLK
P37N: 0.454%
N149Y: 24.6%
K58W: 1.89%
S117G: 5.73%
V121K: -3.2%
L156S: 3.22%
L20I: 42.9%
A84N: 35.8%
T173M: -0.712%
I162N: -2.43%
T101D: -7.24%
D3I: 13.4%
R69C: 12.6%
Y18P: 2.97%
L112R: -0.573%

Sample 5 — method: protein-binding microarray; form: double-stranded DNA, one strand shown; sample: in vitro; tested at: 0.8 µM; setting: whole 60-bp probe, no competitor; direction: higher = stronger binding; quantity: fluorescence intensity; constant ends, left off below: … GTCTTGATTCGCTTGACGCTGCTG
Target: Centromere-binding protein 1, full length, N-terminal tag (CBF1, Saccharomyces cerevisiae, UniProt P17106, residues 1-351)
UniProt P17106, sequence (whole entry, looked up): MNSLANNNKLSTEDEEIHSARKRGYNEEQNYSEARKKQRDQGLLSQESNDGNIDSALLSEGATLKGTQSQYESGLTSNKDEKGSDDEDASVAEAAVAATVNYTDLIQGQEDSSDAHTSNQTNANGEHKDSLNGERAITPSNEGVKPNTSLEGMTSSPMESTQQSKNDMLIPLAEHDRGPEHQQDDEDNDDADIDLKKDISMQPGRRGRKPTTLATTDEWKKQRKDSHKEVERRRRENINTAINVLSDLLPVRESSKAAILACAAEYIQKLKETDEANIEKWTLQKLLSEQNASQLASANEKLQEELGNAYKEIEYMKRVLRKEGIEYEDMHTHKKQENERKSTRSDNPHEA
GAAGAAAGAGCAAGACATCAGGGACTGATGAACTAG: 538 a.u.
GAATAATTCTAGGACCACGTTTTGGGCTTCGTCTAG: 611 a.u.
CTAATTCAAATGCGTGTGACAATATAGCGACGGTTC: 751 a.u.
CTAAAAAAGAGCATTCACGCGATATACGATTTTTTC: 568 a.u.
TGTACGAAGCTATTACATCAGACTATAGTAGTTAGG: 524 a.u.
CTACCACCCAGCTATGTCGTCATGACTACAAATTTC: 625 a.u.
GAAAGAATAAAAAGTTTAATCACGTTCCCGCTTTAG: 2090 a.u.
CCTAACTACTATAATGAACAGGTATAGCTTCGTACA: 540 a.u.
GAAAAGAGGAGCAGAAACGTGGCAATCTAAAGATAG: 518 a.u.
GAAATCATCATTGGTGGTGGTATGGCTTTCACCTAG: 490 a.u.
GAATCTTTCTTCTTTCACGTGTTCTTTTTGTCTTAG: 5020 a.u.
GAAGGAATATACGATGGTGTGAATACTGGTACGTAG: 540 a.u.
CTATTTAACTAGAGAGTGGTGATGATTTATTGATTC: 535 a.u.
CTATCCTGTATTTCACACGAGAGCAAAACACATTTC: 662 a.u.
GAAATCACAAAAAGTCACCTGATGGACCTTATGTAG: 3760 a.u.
GAACAGGTATTACGTCAGGTGAAAAAAGCGGCCTAG: 912 a.u.
GAATAGAGCCAGCATCAGATGCAAAGCCATGCATAG: 483 a.u.
GAAGAAATTAATGATCATGATGAAGTTAATTTTTAG: 565 a.u.
GAATTTTTTTGGGTTTACGTGATACTGCGTAAATAG: 572 a.u.

Repeated from above (sample 3):
VKTKKRLAFDDKV [N8A]: 3.55
VKTKKRANFDDKV [L7A]: 1.37
VKTKKALNFDDKV [R6A]: 1.09
VKAKKRLNFDDKV [T3A]: 6.89
VKTKKRLNLDDKV [F9L]: 0.997
VKTKKRLNFADKV [D10A]: 1.54
VKTKKRLNFDDKA [V13A]: 3.88
